Published values collected from several papers.
Compare with care: the assays were run in different laboratories. ± gives the spread as reported.
ABCG2: Broad substrate specificity ATP-binding cassette transporter ABCG2 (ABCG2, Homo sapiens, UniProt Q9UNQ0)
UniProt Q9UNQ0, sequence (whole entry, looked up): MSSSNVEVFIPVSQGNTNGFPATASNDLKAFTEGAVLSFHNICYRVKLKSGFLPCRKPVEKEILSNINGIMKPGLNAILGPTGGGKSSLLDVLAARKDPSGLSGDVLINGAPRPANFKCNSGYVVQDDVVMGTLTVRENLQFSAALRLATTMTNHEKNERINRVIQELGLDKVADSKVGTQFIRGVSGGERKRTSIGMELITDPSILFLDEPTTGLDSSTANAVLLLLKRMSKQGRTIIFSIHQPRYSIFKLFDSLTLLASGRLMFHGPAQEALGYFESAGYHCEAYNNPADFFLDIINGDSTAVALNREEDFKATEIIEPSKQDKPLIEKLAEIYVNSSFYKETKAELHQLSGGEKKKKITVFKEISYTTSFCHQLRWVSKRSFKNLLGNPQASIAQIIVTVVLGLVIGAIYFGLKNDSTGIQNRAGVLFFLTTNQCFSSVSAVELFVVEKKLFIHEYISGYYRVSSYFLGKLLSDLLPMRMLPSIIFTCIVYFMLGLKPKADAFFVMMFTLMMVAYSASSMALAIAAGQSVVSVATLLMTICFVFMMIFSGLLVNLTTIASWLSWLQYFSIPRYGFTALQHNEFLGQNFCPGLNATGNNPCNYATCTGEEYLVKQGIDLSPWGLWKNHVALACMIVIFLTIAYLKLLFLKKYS
CYP2A6: Cytochrome P450 2A6 (CYP2A6, Homo sapiens, UniProt P11509)
UniProt P11509, sequence (whole entry, looked up): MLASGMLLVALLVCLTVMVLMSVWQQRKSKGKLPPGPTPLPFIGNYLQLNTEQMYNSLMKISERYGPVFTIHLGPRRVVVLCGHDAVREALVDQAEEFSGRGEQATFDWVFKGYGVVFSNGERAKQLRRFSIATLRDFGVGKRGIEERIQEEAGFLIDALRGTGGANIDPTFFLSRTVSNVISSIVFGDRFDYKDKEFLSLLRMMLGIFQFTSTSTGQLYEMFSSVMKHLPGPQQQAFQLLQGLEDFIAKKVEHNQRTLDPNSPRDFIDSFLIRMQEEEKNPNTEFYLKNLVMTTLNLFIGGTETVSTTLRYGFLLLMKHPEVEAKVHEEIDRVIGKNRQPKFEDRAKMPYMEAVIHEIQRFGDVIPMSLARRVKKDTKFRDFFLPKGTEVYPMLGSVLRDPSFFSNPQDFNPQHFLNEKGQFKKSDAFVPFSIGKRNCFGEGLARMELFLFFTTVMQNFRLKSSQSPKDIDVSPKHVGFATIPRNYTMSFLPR
SLCO1B3: Solute carrier organic anion transporter family member 1B3 (SLCO1B3, Homo sapiens, UniProt Q9NPD5)
UniProt Q9NPD5, sequence (whole entry, looked up): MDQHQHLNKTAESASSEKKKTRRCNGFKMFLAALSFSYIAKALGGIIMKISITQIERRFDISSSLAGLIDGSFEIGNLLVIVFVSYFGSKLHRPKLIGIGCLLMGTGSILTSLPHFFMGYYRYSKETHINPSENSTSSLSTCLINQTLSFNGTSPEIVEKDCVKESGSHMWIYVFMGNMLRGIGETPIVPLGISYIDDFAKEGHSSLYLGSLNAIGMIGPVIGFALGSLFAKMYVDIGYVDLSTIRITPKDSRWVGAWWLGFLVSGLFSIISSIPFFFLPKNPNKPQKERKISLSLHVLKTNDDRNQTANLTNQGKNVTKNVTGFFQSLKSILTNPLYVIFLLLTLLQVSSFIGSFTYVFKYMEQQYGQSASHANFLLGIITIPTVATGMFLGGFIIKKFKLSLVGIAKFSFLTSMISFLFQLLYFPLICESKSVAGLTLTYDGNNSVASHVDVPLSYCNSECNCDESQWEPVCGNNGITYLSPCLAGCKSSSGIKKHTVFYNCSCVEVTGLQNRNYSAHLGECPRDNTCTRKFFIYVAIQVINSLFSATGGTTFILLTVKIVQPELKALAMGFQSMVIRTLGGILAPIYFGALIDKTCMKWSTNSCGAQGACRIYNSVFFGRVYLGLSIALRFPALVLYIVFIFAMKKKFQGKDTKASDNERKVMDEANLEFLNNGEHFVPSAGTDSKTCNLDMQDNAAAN
KCNH2: Voltage-gated inwardly rectifying potassium channel KCNH2 (KCNH2, Homo sapiens, UniProt Q12809)
UniProt Q12809, sequence (whole entry, looked up): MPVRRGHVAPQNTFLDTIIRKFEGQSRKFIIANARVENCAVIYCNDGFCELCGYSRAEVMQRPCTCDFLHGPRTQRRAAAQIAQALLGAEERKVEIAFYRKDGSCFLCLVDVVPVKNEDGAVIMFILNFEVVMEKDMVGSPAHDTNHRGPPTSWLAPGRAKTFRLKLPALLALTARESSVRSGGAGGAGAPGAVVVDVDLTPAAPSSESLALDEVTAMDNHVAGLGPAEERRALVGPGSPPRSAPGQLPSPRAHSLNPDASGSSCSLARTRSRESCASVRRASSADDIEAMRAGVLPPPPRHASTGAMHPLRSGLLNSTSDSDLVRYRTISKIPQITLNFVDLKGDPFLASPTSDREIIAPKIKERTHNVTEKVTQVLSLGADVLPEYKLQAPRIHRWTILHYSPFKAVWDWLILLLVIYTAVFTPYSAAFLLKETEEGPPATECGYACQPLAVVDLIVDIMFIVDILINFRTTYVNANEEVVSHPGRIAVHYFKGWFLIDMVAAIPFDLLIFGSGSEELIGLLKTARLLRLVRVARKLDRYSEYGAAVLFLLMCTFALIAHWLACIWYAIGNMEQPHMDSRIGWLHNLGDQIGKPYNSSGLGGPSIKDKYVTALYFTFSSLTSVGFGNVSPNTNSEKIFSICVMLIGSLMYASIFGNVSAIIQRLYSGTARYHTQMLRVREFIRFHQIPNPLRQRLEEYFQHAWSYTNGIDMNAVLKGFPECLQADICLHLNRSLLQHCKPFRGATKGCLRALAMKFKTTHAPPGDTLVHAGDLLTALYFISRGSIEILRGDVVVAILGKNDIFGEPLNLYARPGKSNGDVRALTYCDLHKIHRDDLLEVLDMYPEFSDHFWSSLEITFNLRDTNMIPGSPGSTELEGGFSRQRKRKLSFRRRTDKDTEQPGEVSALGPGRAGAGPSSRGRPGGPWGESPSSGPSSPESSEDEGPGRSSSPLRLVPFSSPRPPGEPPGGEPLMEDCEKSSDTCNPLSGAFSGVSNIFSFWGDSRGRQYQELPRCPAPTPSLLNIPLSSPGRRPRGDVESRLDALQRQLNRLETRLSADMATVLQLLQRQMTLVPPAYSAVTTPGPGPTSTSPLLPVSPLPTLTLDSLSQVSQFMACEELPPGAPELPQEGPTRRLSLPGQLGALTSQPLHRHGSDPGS
UGT1A1: UDP-glucuronosyltransferase 1A1 (UGT1A1, Homo sapiens, UniProt P22309)
UniProt P22309, sequence (whole entry, looked up): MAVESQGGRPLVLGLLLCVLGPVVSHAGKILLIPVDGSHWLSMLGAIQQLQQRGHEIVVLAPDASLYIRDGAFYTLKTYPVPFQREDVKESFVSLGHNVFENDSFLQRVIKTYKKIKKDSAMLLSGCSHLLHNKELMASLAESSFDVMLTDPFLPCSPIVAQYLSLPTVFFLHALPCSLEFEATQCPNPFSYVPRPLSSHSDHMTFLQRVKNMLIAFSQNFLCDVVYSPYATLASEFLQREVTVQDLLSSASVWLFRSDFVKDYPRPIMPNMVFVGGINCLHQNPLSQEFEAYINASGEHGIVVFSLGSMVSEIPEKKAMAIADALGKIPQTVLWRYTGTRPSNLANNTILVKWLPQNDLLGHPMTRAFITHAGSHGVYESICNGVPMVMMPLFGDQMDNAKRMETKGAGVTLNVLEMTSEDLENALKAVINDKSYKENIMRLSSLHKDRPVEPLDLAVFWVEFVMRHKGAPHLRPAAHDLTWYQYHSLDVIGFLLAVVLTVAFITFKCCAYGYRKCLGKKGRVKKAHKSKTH
UniProt P21447, sequence (whole entry, looked up): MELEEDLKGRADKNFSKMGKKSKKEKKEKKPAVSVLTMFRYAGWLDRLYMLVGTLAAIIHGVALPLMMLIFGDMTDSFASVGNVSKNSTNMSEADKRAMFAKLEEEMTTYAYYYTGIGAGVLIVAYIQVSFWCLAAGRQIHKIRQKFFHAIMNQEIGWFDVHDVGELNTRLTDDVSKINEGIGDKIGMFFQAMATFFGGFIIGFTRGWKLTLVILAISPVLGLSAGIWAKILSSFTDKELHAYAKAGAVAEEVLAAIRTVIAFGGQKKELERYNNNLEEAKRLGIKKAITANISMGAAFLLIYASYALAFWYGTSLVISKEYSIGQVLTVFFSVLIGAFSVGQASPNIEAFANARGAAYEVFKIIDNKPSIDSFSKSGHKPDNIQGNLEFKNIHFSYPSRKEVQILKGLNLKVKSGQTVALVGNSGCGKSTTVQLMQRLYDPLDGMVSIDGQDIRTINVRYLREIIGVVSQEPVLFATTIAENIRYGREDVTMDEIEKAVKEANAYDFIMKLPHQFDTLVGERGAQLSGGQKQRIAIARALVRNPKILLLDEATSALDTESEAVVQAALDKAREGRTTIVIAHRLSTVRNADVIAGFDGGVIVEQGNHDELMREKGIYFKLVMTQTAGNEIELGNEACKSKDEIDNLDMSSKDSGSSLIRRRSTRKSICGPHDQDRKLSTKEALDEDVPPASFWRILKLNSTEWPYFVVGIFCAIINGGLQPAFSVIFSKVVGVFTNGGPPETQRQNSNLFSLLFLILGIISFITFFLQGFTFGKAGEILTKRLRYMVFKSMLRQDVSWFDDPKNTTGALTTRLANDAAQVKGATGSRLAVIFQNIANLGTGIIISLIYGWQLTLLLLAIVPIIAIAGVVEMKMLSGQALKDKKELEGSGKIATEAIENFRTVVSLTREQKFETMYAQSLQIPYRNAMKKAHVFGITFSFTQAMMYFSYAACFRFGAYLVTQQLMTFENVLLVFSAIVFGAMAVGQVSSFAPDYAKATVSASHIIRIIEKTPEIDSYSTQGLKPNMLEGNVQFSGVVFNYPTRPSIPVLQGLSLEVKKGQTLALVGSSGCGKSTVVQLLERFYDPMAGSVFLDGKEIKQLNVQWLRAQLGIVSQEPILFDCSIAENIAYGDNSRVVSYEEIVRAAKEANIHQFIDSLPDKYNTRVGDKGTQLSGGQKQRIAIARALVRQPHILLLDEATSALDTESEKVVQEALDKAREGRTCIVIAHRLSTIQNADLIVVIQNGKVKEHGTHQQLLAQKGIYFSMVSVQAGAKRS

Substance = CC[C@H](C)[C@H](NC(=O)[C@H](CCC(=O)O)NC(=O)[C@H](CO)NC(=O)[C@@H](NC(=O)[C@@H](N)CO)C(C)C)C(=O)N[C@@H](CCC(N)=O)C(=O)N[C@@H](CC(C)C)C(=O)N[C@@H](CCSC)C(=O)N[C@@H](Cc1cnc[nH]1)C(=O)N[C@@H](CC(N)=O)C(=O)N[C@@H](CC(C)C)C(=O)NCC(=O)N[C@@H](CCCCN)C(=O)N[C@@H](Cc1cnc[nH]1)C(=O)N[C@@H](CC(C)C)C(=O)N[C@@H](CC(N)=O)C(=O)N[C@@H](CO)C(=O)N[C@@H](CCSC)C(=O)N[C@@H](CCC(=O)O)C(=O)N[C@@H](CCCN=C(N)N)C(=O)N[C@H](C(=O)N[C@@H](CCC(=O)O)C(=O)N[C@@H](Cc1c[nH]c2ccccc12)C(=O)N[C@@H](CC(C)C)C(=O)N[C@@H](CCCN=C(N)N)C(=O)N[C@@H](CCCCN)C(=O)N[C@@H](CCCCN)C(=O)N[C@@H](CC(C)C)C(=O)N[C@@H](CCC(N)=O)C(=O)N[C@@H](CC(=O)O)C(=O)N[C@H](C(=O)N[C@@H](Cc1cnc[nH]1)C(=O)N[C@@H](CC(N)=O)C(=O)N[C@@H](Cc1ccccc1)C(=O)O)C(C)C)C(C)C; target = trypsin (bovine pancreas); test = proteolytic degradation, HPLC-UV; conditions = 0.5 mg/mL, 0.5 h, pH 6.5, 37 °C, with: trypsin with soybean trypsin inhibitor; measurement = remaining intact compound; result = 86%
Substance = O=C(c1ccoc1)N1CCN(c2cc(-c3ccc(F)cc3)nc3cc(-c4cccc(Cl)c4)nn23)CC1; target = ABCG2; test = JC-1 dye efflux, inhibitor, flow cytometry; test system = ABCG2-overexpressing cells; conditions = with: JC-1 1 µM; measurement = IC50; result = 2410 ± 520 nM
Substance = Cc1coc2c1CC[C@@H](C)C2; target = CYP2A6; test = inactivator; conditions = 5 µM, 10 min, pH 7.4, 30 °C, with: NADPH, semicarbazide 10 mM; measurement = remaining activity; result = 42 ± 3%
Substance = COc1ccc(-c2cc(N3CCN(C(=O)c4ccoc4)CC3)n3nc(-c4cccc(Cl)c4)cc3n2)cc1; target = ABCG2; test = JC-1 dye efflux, inhibitor, flow cytometry; test system = ABCG2-overexpressing cells; conditions = with: JC-1 1 µM; measurement = IC50; result = 1710 ± 580 nM
Substance = O=C(O[C@H]1[C@@H]2C=CO[C@@H](O[C@@H]3O[C@H](CO)[C@@H](O)[C@H](O)[C@H]3O)[C@@H]2[C@@]2(CO)O[C@@H]12)c1ccc(O)cc1; target = SLCO1B3; test = uptake, substrate; test system = HEK293 overexpressing SLCO1B3; conditions = 5 min; measurement = intrinsic clearance; result = 0.034 µL/min
Substance = Cc1cccc(-c2cc3nc(-c4ccccc4)cc(N4CCN(C(=O)c5ccco5)CC4)n3n2)c1; target = ABCG2; test = JC-1 dye efflux, inhibitor, flow cytometry; test system = ABCG2-overexpressing cells; conditions = with: JC-1 1 µM; measurement = IC50; result = 2460 ± 1090 nM
Substance = Cc1cc(Nc2ncnc3ccc(NC4=NC(C)(C)CO4)cc23)ccc1Oc1ccn2ncnc2c1; target = ABCB1 and ABCG2; test = IVIVE scaling; test system = human; measurement = BBB passive plus efflux clearance; result = 350 mL/min
Substance = COc1ccccc1C(=O)N1CCN(c2cc(-c3ccccc3)nc3cc(-c4cccc(Cl)c4)nn23)CC1; target = ABCG2; test = JC-1 dye efflux, inhibitor, flow cytometry; test system = ABCG2-overexpressing cells; conditions = with: JC-1 1 µM; measurement = IC50; result = 4920 ± 4280 nM
Substance = CCN(CCO)CCC[C@H](C)Nc1ccnc2cc(Cl)ccc12; target = KCNH2; test = ion current, inhibitor, patch clamp; measurement = IC50; result = 74000 nM
Substance = O=C1NC(c2ccccc2)(c2ccccc2)C(=O)N1COP(=O)(O)O; target = alkaline phosphatase; test system = human small intestinal microtissues; conditions = 10 µM, 2 h, basolateral dosing, basolateral to apical; measurement = parent drug recovery; result = 36%
Substance = C=CC(=O)N1CCC([C@@H]2CCNc3c(C(N)=O)c(-c4ccc(Oc5ccccc5)cc4)nn32)CC1; target = ABCG2; test = transport, measured: Lucifer Yellow uptake; test system = membrane vesicles; conditions = 5 µM; how to read = baseline: vehicle; measurement = remaining activity; result = 83.3%
Substance = C[C@@H](Oc1cc(-c2cnn(C3CCNCC3)c2)cnc1N)c1c(Cl)ccc(F)c1Cl; target = ATP-dependent translocase ABCB1 (Abcb1a, Mus musculus, UniProt P21447); test system = LLC-PK1 cells expressing mouse Abcb1a; conditions = 3.5 h, with: zosuquidar 1 µM; how to read = apical to basolateral; measurement = Papp; result = 5.86 ± 1.56 ×10⁻⁶ cm/s
Substance = Cn1c2c(c3ccccc31)CN(CCCCNC(=O)c1cc3ccccc3[nH]1)CC2; target = KCNH2; test = potassium current, inhibitor, automated patch clamp; test system = CHO cells expressing hERG; measurement = IC50; result = 1410 nM
Substance = O=C(Nc1cc(F)c(F)c(F)c1)[C@H]1CCN(C(=O)c2ccc(-c3ccncc3)[nH]2)C1; target = CYP3A4/5, human; test = enzyme activity, inhibitor; test system = human liver microsomes; conditions = 10 µM, 10 min, with: midazolam and testosterone; measurement = inhibition; result = 76%
Substance = O=C(c1cccnc1)N1CCN(c2cc(-c3ccccc3)nc3cc(-c4cccc(Cl)c4)nn23)CC1; target = ABCG2; test = JC-1 dye efflux, inhibitor, flow cytometry; test system = ABCG2-overexpressing cells; conditions = with: JC-1 1 µM; measurement = IC50; result = 230 ± 150 nM
Substance = O=c1c(O)c(-c2ccc(O)cc2)oc2cc(O)ccc12; target = UGT1A1; test = glucuronidation rate, inhibitor; conditions = 5 µM, with: 3-hydroxyflavone substrate; how to read = baseline: no inhibitor; measurement = inhibition; result = 93.9 ± 2.2%
Substance = O=C(c1ccoc1)N1CCN(c2cc(-c3ccccc3)nc3cc(-c4cccc(Cl)c4)nn23)CC1; target = ABCG2; test = JC-1 dye efflux, inhibitor, flow cytometry; test system = ABCG2-overexpressing cells; conditions = with: JC-1 1 µM; measurement = IC50; result = 1190 ± 260 nM
Substance = O=C1CC(c2ccccc2)Oc2ccccc21 (stereo not drawn); target = CYP2A6; test = substrate, measured: 2'-hydroxy metabolite formation; conditions = reconstituted system; measurement = Km; result = 12 µM
Substance = Cc1nc2c([nH]1)c(=O)n(C)c(=O)n2Cc1ccco1; target = cytochrome P450, rat; test system = rat liver microsomes; conditions = 20 µM, 60 min, pH 7.4; measurement = inhibition; result = 38%
Substance = CC(=O)c1cc(C(=O)N[C@@H](C)Cn2ccc(-c3ccc(C#N)c(Cl)c3)n2)[nH]n1; target = SLCO1B3; test = uptake, inhibitor; test system = HEK (transfected); conditions = 1 h preincubation, with: pravastatin substrate; measurement = IC50; result = 14200 nM
Substance = C[C@]12CC[C@@H]3c4ccc(O)cc4CC[C@H]3[C@@H]1CC[C@@H]2O; target = UGT1A1; test = glucuronidation, substrate; conditions = with: UDPGA; measurement = Vmax; result = 223 ± 10.6 pmol/min/mg
Substance = COc1cccc(-c2cc3nc(-c4ccco4)cc(N4CCN(C(C)=O)CC4)n3n2)c1; target = ABCG2; test = JC-1 dye efflux, inhibitor, flow cytometry; test system = ABCG2-overexpressing cells; conditions = with: JC-1 1 µM; measurement = IC50; result = 1900 nM
Substance = O=C(O)[C@H]1O[C@@H](Oc2ccc(-c3cc(=O)c4ccccc4o3)cc2)[C@H](O)[C@@H](O)[C@@H]1O; target = UGT1A1; test = glucuronidation, substrate, Supersomes; measurement = Km; result = 2.24 ± 0.11 µM
Substance = liraglutide; target = α1-acid glycoprotein human; test = equilibrium dialysis; conditions = 10 nM, 4 to 5 h, pH 7.4, 37 °C, ratio 50:1 (98% bound), with: AAGP 1 mg/mL; measurement = protein binding; result = 98.7%
Substance = CO[C@H]1/C=C/O[C@@]2(C)Oc3c(C)c(O)c4c(O)c(c(/C=N/N5CCN(C)CC5)c(O)c4c3C2=O)NC(=O)/C(C)=C\C=C\[C@H](C)[C@H](O)[C@@H](C)[C@@H](O)[C@@H](C)[C@H](OC(C)=O)[C@@H]1C; target = SLCO1B3; test = transport, inhibitor; test system = HEK293 overexpressing SLCO1B3; conditions = 100 µM, with: estradiol-17β-glucuronide; how to read = baseline: vehicle; measurement = remaining activity; result = 2.5 ± 2.6%
Substance = Cc1nc2cc(-c3cccc(Cl)c3)nn2c(N2CCN(C(=O)c3ccco3)CC2)c1C; target = ABCG2; test = JC-1 dye efflux, inhibitor, flow cytometry; test system = ABCG2-overexpressing cells; conditions = with: JC-1 1 µM; measurement = IC50; result = 2650 ± 1070 nM
Substance = O=C(O)[C@H]1O[C@@H](Oc2c(-c3ccccc3)oc3ccccc3c2=O)[C@H](O)[C@@H](O)[C@@H]1O; target = UGT1A1; test = glucuronidation, substrate, Supersomes; measurement = Km; result = 1.46 ± 0.24 µM

Excerpt of the above:
Substance = liraglutide; target = α1-acid glycoprotein human; test = equilibrium dialysis; conditions = 10 nM, 4 to 5 h, pH 7.4, 37 °C, ratio 50:1 (98% bound), with: AAGP 1 mg/mL; measurement = protein binding; result = 98.7%
Substance = CO[C@H]1/C=C/O[C@@]2(C)Oc3c(C)c(O)c4c(O)c(c(/C=N/N5CCN(C)CC5)c(O)c4c3C2=O)NC(=O)/C(C)=C\C=C\[C@H](C)[C@H](O)[C@@H](C)[C@@H](O)[C@@H](C)[C@H](OC(C)=O)[C@@H]1C; target = SLCO1B3; test = transport, inhibitor; test system = HEK293 overexpressing SLCO1B3; conditions = 100 µM, with: estradiol-17β-glucuronide; how to read = baseline: vehicle; measurement = remaining activity; result = 2.5 ± 2.6%
